Results of several laboratories.
Numbered parts are unrelated; each lists some results of a single study. Values joined by “and” are separate records of one study, mostly repeats; a detail may differ.
UniProt P49840, sequence (whole entry, looked up): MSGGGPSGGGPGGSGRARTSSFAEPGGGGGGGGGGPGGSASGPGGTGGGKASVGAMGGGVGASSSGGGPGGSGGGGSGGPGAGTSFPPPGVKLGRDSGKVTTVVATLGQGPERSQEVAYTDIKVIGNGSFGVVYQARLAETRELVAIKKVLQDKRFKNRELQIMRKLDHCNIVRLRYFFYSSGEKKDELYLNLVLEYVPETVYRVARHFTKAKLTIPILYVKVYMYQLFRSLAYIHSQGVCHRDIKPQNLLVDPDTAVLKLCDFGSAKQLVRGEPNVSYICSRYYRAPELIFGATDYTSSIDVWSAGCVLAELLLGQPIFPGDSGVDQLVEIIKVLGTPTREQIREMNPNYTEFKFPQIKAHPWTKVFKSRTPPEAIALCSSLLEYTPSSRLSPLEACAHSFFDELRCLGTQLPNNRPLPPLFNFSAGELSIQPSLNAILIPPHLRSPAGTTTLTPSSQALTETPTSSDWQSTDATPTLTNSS
UniProt Q9UPE1, sequence (whole entry, looked up): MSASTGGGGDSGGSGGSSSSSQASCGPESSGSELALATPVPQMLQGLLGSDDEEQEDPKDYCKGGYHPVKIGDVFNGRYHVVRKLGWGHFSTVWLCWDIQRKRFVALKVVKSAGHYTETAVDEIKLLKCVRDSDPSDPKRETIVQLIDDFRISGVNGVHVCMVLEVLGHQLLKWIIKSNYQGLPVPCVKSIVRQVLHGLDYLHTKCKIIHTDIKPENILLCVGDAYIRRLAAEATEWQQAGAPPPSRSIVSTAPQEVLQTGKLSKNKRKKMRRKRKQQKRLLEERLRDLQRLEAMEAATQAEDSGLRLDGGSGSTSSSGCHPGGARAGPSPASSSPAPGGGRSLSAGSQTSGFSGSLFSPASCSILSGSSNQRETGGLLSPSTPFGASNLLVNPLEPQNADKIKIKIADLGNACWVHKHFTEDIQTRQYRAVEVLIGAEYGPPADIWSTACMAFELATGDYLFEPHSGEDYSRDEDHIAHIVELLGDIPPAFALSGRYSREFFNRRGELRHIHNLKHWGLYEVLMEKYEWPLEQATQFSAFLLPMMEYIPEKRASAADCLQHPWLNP
UniProt Q5S007, sequence (whole entry, unmodified, looked up): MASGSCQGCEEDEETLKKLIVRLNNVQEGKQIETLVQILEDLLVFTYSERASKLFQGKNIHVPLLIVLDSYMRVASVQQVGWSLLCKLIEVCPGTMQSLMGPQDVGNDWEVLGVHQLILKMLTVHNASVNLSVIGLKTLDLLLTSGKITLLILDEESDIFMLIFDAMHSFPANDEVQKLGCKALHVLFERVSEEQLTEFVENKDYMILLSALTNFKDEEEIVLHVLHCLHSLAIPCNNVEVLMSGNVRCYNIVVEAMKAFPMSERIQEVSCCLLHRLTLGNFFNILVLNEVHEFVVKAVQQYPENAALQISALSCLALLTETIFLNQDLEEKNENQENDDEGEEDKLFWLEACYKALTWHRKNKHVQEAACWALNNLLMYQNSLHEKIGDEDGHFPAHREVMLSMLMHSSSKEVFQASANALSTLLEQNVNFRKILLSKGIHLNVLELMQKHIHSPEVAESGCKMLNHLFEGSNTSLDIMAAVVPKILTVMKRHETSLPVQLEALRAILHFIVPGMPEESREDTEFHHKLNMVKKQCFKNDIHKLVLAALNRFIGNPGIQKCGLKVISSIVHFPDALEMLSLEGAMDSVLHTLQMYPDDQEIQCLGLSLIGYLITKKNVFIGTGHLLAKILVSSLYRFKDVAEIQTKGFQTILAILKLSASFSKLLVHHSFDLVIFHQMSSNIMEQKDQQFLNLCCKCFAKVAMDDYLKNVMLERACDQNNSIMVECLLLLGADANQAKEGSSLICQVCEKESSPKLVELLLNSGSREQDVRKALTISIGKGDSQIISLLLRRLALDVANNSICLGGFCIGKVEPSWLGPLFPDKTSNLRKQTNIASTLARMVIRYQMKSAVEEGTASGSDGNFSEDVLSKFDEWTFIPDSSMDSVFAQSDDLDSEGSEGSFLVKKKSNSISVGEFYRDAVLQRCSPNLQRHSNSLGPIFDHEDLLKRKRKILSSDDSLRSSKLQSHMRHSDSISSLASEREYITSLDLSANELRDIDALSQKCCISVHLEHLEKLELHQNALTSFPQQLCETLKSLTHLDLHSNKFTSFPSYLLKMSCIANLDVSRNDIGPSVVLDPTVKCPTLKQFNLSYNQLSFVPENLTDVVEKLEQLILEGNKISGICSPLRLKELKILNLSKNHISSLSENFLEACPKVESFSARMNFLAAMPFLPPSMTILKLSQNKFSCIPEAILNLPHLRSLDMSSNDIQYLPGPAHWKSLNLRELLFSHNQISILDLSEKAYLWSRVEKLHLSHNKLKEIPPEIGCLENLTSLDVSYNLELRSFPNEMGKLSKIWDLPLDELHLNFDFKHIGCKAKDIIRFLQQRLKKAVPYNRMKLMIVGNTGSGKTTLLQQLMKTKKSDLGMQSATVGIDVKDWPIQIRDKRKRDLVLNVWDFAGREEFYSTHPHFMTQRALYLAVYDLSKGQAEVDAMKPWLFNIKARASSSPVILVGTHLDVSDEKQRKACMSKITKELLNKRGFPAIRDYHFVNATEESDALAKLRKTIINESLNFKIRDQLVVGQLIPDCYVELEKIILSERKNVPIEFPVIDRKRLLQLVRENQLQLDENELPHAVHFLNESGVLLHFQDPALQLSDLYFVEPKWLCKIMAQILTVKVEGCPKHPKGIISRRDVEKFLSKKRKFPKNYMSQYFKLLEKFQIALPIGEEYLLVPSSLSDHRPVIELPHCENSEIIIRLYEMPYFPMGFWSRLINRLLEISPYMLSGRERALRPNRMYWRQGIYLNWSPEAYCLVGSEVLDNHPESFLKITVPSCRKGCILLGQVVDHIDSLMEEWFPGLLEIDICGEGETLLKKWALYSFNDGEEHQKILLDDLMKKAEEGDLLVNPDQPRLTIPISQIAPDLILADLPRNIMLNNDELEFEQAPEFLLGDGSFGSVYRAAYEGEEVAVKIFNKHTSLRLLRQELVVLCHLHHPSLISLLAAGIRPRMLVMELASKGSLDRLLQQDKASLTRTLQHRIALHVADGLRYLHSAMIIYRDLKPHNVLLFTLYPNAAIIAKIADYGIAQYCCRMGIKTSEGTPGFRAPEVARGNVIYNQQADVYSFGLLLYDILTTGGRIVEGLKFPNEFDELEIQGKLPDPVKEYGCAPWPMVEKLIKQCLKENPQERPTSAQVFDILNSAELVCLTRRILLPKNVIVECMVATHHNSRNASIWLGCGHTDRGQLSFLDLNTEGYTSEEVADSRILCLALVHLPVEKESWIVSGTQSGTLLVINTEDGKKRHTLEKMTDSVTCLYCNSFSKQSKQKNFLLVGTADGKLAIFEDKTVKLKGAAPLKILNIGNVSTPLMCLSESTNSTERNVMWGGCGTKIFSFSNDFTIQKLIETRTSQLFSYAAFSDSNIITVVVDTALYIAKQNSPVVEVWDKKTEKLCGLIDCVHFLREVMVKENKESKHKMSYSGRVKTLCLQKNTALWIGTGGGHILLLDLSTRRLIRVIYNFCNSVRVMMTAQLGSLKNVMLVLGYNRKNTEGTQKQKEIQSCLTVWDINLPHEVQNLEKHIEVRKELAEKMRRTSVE
UniProt P15056, sequence (whole entry, looked up): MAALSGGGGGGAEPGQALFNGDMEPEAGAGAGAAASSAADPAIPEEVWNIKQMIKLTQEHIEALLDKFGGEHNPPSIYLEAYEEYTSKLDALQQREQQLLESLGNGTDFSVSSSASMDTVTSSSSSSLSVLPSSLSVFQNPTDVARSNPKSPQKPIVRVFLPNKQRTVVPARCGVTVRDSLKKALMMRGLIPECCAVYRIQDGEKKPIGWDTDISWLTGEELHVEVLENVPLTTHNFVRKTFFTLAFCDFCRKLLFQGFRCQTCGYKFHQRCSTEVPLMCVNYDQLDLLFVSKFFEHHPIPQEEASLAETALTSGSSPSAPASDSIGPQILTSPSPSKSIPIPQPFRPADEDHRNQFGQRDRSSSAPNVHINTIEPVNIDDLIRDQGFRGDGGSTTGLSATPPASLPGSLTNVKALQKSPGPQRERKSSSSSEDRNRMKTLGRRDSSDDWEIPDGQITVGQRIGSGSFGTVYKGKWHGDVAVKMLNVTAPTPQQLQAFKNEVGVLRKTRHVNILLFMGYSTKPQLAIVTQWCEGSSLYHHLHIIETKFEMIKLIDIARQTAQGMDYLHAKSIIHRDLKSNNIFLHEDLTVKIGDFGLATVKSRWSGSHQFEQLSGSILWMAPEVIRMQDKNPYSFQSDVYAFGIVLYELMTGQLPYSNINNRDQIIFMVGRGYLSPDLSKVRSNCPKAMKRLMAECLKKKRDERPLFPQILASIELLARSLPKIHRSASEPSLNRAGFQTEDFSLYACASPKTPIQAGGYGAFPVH

Series 1 — organism: Plasmodium berghei; action: inhibitor; cell line: Huh-7; strain: GFP-expressing, liver stage; tested at: 10 µM; time: 24 h; relative to: untreated control
Compound | infection rate
Cn1c([N+](=O)[O-])cnc1COC(N)=O | 93.7%
CCOc1ccc(NC(C)=O)cc1 | 103%
CC1(C)NC(=O)N(c2ccc([N+](=O)[O-])c(C(F)(F)F)c2)C1=O | 102%
CNC(=C[N+](=O)[O-])NCCSCc1csc(CN(C)C)n1 | 90.8%
CC1(C)O[C@@H]2C[C@H]3[C@@H]4CCC5=CC(=O)C=C[C@]5(C)[C@@]4(F)[C@@H](O)C[C@]3(C)[C@]2(C(=O)CO)O1 | 70.8%
CCN(CC)CCCC(C)Nc1c2ccc(Cl)cc2nc2ccc(OC)cc12 (stereo not drawn) | 381%
CN(C)CCCN1c2ccccc2Sc2ccccc21 | 92.3%
C[N+]1(CCCCC[N+]2(C)CCCC2)CCCC1 | 95.8%
O=P(O)(O)C(O)(Cc1cccnc1)P(=O)(O)O | 83.7%
C=CC[C@@H]1/C=C(\C)C[C@H](C)C[C@H](OC)[C@H]2O[C@@](O)(C(=O)C(=O)N3CCCC[C@H]3C(=O)O[C@H](/C(C)=C/[C@@H]3CC[C@@H](O)[C@H](OC)C3)[C@H](C)[C@@H](O)CC1=O)[C@H](C)C[C@@H]2OC | 65.8%

Series 2 — cell line: A-375; tested at: 100 µM; time: 36 h
SMILES | viability
COc1cnc(NS(=O)(=O)c2ccc(N)cc2)nc1 | 98.3%
CC1(C)O[C@@H]2C[C@H]3[C@@H]4C[C@H](F)C5=CC(=O)C=C[C@]5(C)[C@H]4[C@@H](O)C[C@]3(C)[C@]2(C(=O)CO)O1 | 96.8%
Nc1nc2[nH]cc(CCc3ccc(C(=O)N[C@@H](CCC(=O)O)C(=O)O)cc3)c2c(=O)[nH]1 | 56.4% and 69.3%
CCN(CC)C(=O)Nc1ccc(OCC(O)CNC(C)(C)C)c(C(C)=O)c1 (stereo not drawn) | 114%
O=C(O)c1cc(O)c2c(c1)[C@H]([C@H]1c3cc(C(=O)O)cc(O)c3C(=O)c3c(O[C@@H]4O[C@H](CO)[C@@H](O)[C@H](O)[C@H]4O)cccc31)c1cccc(O[C@@H]3O[C@H](CO)[C@@H](O)[C@H](O)[C@H]3O)c1C2=O | 108%
Cc1onc(-c2ccccc2Cl)c1C(=O)N[C@@H]1C(=O)N2[C@@H]1SC(C)(C)[C@@H]2C(=O)O | 102%
C[C@H](N)[C@H](O)c1cccc(O)c1 | 129%
COc1c(C)c2c(c(O)c1C/C=C(\C)CCC(=O)O)C(=O)OC2 | 33.1%
C[C@@H]1C[C@H]2[C@@H]3CCC4=CC(=O)C=C[C@]4(C)[C@@]3(F)[C@@H](O)C[C@]2(C)[C@@]1(O)C(=O)CO | 84.3%
CNC(=O)c1cnn(-c2nc(N)c3ncn([C@@H]4O[C@H](CO)[C@@H](O)[C@H]4O)c3n2)c1 | 101%
CC(C)(C)CC(C)(C)c1ccc(O)c(Cc2ccc(Cl)cc2Cl)c1 | -1.33%
C#C[C@]1(O)CC[C@H]2[C@@H]3CCC4=Cc5oncc5C[C@]4(C)[C@H]3CC[C@@]21C | -0.307%

Series 3 — read-out: enzyme activity; action: inhibitor; tested at: 0.5 µM; relative to: control
Target: RAF proto-oncogene serine/threonine-protein kinase (RAF1, Homo sapiens, UniProt P04049)
UniProt P04049, sequence (whole entry, looked up): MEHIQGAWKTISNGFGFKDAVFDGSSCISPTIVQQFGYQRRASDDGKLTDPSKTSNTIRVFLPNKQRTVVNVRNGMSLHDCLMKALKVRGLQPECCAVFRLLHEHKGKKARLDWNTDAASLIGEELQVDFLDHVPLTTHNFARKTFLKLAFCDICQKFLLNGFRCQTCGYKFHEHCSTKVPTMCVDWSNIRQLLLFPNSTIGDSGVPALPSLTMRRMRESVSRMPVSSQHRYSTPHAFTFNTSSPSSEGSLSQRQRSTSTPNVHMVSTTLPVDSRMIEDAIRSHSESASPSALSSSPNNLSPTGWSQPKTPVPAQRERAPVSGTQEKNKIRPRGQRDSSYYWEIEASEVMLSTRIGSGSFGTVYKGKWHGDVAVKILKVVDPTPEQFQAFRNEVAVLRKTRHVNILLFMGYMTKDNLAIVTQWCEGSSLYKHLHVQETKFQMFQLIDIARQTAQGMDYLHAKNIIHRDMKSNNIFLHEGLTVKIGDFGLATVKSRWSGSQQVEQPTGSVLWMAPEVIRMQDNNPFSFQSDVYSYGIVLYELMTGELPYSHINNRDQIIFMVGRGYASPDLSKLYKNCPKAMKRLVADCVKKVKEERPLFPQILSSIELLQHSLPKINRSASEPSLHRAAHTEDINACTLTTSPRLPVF
Compound | remaining activity
CCCCc1c(-c2ccc(O)cc2)[nH]c2nccnc12 | 106%
O=c1c(-c2ccc(F)cc2)c(-c2ccncc2)[nH]n1-c1ccc(Cl)cc1 | 61.4%
CNc1cc2c(Nc3cccc(Br)c3)ncnc2cn1 | 87.8%
NC(=O)c1cccc(-c2cc(Nc3ccc(OC(F)(F)F)cc3)ncn2)c1 | 105%
O=C(c1ccccc1)c1ccc(N2CCOCC2)cc1O | 95.9%
CC(C)(C)c1nc2c3cc[nH]c(=O)c3c3cc(F)ccc3c2[nH]1 | 134%
FC(F)(F)c1ccc(/C=C/c2nc(COc3ccc(CCCCn4ccnn4)cc3)co2)cc1 | 97.1%
O=C(O)/C=C/c1cc(Br)c(Br)c(Br)c1Br | 91.3%
C[C@@H](N)[C@H]1CC[C@H](C(=O)Nc2ccncc2)CC1 | 103%
N#CC(c1ccnc(NCCc2cccnc2)n1)c1nc2ccccc2s1 (stereo not drawn) | 84%
O=C1NC(=O)/C(=C/c2ccc3c(c2)OC(F)(F)O3)S1 | 95.5%

Series 4 — read-out: cell-free assay; technique: competition with immobilised ligand; tested at: 1 µM
Compound: Cn1nc(C(F)(F)F)cc1-c1cnc(N2CCc3cc(S(=O)(=O)Nc4c(F)cc(Cl)cc4F)cc(N4CCCC4=O)c32)nc1
target | remaining binding [%]
GSK3A (Homo sapiens, UniProt P49840) | 95
BRAF (Homo sapiens, UniProt P15056) | 82
CDK5 (Homo sapiens, UniProt Q00535) | 100
CDK4 (Homo sapiens, UniProt P11802) | 68
PNCK (Homo sapiens, UniProt Q6P2M8) | 80
SRPK3 (Homo sapiens, UniProt Q9UPE1) | 100
PAK5 (Homo sapiens, UniProt Q9P286) | 100
LRRK2 (Homo sapiens, UniProt Q5S007, G2019S) | 93
CDK9 (Homo sapiens, UniProt P50750) | 100

A few entries again (series 4):
target | remaining binding [%]
CDK4 (Homo sapiens, UniProt P11802) | 68
PNCK (Homo sapiens, UniProt Q6P2M8) | 80
SRPK3 (Homo sapiens, UniProt Q9UPE1) | 100
